Measured values from different studies.
Lines come from different studies, so protocols differ. “And” joins repeats or separate records; there may be more than shown. ± marks the error that the study gave.
CNR1: Cannabinoid receptor 1 (CNR1, Homo sapiens, UniProt P21554)
gyrB with GyrA: DNA gyrase subunit B, with GyrA (gyrB, Mycobacterium tuberculosis, UniProt P9WG45)
PRKX: cAMP-dependent protein kinase catalytic subunit PRKX (PRKX, Homo sapiens, UniProt P51817)
ARID1B: AT-rich interactive domain-containing protein 1B (ARID1B, Homo sapiens, UniProt Q8NFD5)
MDM2: E3 ubiquitin-protein ligase Mdm2 (MDM2, Homo sapiens, UniProt Q00987)

COc1ccccc1-c1n[nH]c2nc(NC3CCN(C(=O)Cc4ccc(F)cc4F)CC3)ncc12 — relative abundance (bead binding, competition bead pull-down, measured: LINJ.28.2370; Leishmania donovani axenic amastigote extract; 10 µM; relative to: vehicle): 0.7
CC(C)(C)C(=O)OCOP(=O)(OCOC(=O)C(C)(C)C)C1CCCN(O)C1=O (centres unmarked) — Log10LC50 (NCI/ADR-RES): > -4 log M
CCCCCn1cc(C(=O)c2cccc3c2CC(C)(C)C3)c2ccccc21 — EC50 (CNR1; cAMP, agonist): 4.9 nM
Cc1cccc(NC(=O)CCc2c(C(=O)Nc3cccc(C)c3)[nH]c3ccc(Cl)cc23)c1 — IC50 (gyrB with GyrA): 32.5 µM
CC(C)[C@H]1NC(=O)C[C@H]2/C=C/CCSSC[C@@H](NC1=O)C(=O)N[C@H](Cc1cccc3ccccc13)C(=O)NCC(=O)O2 — inhibition (PRKX; enzyme activity, inhibitor; 10 µM): 8.2%
CC(C)C[C@@H]1NC(=O)CN(C)C(=O)[C@H](Cc2c[nH]c3ccccc23)NC(=O)[C@H](CCC(=O)O)NC(=O)[C@H](Cc2ccccc2)N(C)C(=O)[C@H](Cc2ccccc2)NC(=O)CSC[C@@H](C(N)=O)NC(=O)[C@H](CCCCN)NC(=O)[C@H](C(C)C)NC(=O)[C@H](C)NC(=O)[C@H](Cc2ccc(O)cc2)NC(=O)[C@H](C(C)C)NC(=O)[C@H](Cc2ccccc2)N(C)C(=O)[C@H](CCCNC(=N)N)NC1=O — IC50 (ARID1B; binding, TR-FRET competition; 1% DMSO): > 1 µM
CC(=O)N(Cc1ccc(Br)cc1)[C@@H](C)C(=O)N(C)[C@@H](C)C(=O)N(Cc1c[nH]c2ccccc12)[C@@H](C)C(=O)N(C)[C@@H](C)C(=O)N(CCC(C)C)[C@@H](C)C(N)=O — Ki (MDM2; ligand displacement, FP): 24900 nM
CCC[C@@H](C(=O)c1ccccc1)N1CCCC1 — Ki (SLC6A3 (Homo sapiens, UniProt Q01959); dopamine uptake, inhibitor; HEK293 transiently transfected; DAT V152I mutant, added: [3H]dopamine): 48 nM
C=C(C)C1C2OC(=O)C1C1(O)CC3OC34C(=O)OC2C14C (centres unmarked) — Kd (Rdl (Drosophila melanogaster, UniProt P25123); ion current, inhibitor, two-electrode voltage clamp; from koff/kon, added: GABA at EC50): 438 nM
CC(C)c1nc2cc(O)ccc2c(=O)n1-c1ccc(C#N)cc1 — IC50 (TRPV1 (Homo sapiens, UniProt Q8NER1, T556A); ion current, antagonist, whole-cell patch clamp; mutant T556A, +80 mV, added: pH 5 stimulus): 0.86 µM
Cc1ccc(OCCN(C)C)cc1C(=O)N[C@H](C)c1cc(-c2cnn(CC(C)(C)O)c2)nc2ccccc12 — viability (Vero E6; 3.906 µM): 104% and 111%
O=C1NC(=O)c2c1c1cc(F)c[n+]3c1c1c2c2cc(O)ccc2[n]1[Ru-4]312([N]=C=S)[S+]3CC[S+]1CC[S+]2CC3 (centres unmarked) — remaining activity (PRKX; enzyme activity; 100 nM, human enzyme, added: 10 µM ATP; relative to: untreated): 36%
CS(C)(=O)=Nc1ccc(-c2ccc(-c3nc4cc(O[C@@H]5CO[C@H]6[C@@H]5OC[C@H]6O)[nH]c4cc3F)cc2)cc1 — inhibition (MC3R (Homo sapiens, UniProt P41968); calcium signal, antagonist; 10 µM): 17%
CC(C)[C@@H]1NC(=O)[C@H](Cc2ccc(O)cc2)NC(=O)[C@H](Cc2ccc(O)cc2)NC(=O)[C@H](C(C)C)NC(=O)[C@H](Cc2ccccc2)N(C)C(=O)[C@H](CCCNC(=N)N)NC(=O)[C@H](C)NC(=O)CN(C)C(=O)[C@H](Cc2c[nH]c3ccccc23)NC(=O)[C@H](CCC(=O)O)NC(=O)[C@H](Cc2ccccc2)N(C)C(=O)[C@H](Cc2ccccc2)NC(=O)CSC[C@@H](C(N)=O)NC(=O)[C@H](CCCCN)NC1=O — IC50 (ARID1B; binding, TR-FRET competition; 1% DMSO): 0.01 µM
O=C1NC2(CC2)COc2ncc(F)cc2[C@H]2COCCN2c2ccn3ncc1c3n2 — reticulocytes (Sprague-Dawley rat, female, blood; oral, 10 mg/kg/day, end of treatment, 4-week repeated-dose toxicity; relative to: red blood cells): 2.19 ± 0.57%
CC(C)CC(C(=O)N1CC2(CC1C#N)C(=O)Nc1ccccc12)N(C)C(=O)c1cc2c(F)cc(F)c(F)c2[nH]1 (centres unmarked) — IC50 (Caspase-3 (CASP3, Homo sapiens, UniProt P42574); enzyme activity, inhibitor): 4.2 µM and 4.16 µM
CCCCCn1cc(C(=O)c2ccc3ccccc3c2)c2ccccc21 — EC50 (CNR2 (Homo sapiens, UniProt P34972, L182I); cAMP, agonist, BRET): 50.1 nM
CN(C)[C@H]1C[C@@]23CC[C@@]4(O2)C(=CC[C@]2(C)[C@@H](c5ccc6ccncc6c5)CC[C@H]24)C=C3[C@@H](O)[C@@H]1O — inhibition (PTK2 (Homo sapiens, UniProt Q05397); ATP probe labelling, inhibitor, KiNativ profiling; 0.1 µM): -15.9%
CCN(CC)C(=O)c1ccc(C(c2cccc(O)c2)N2CC(C)N(Cc3ccccc3)CC2C)cc1 (centres unmarked) — Ki (OPRD1 (Homo sapiens, UniProt P41143, L300A)): 0.58 ± 0.34 nM
O=[N+]([O-])CC(c1ccco1)c1c(-c2ccccc2)[nH]c2ccccc12 (centres unmarked) — EC50 (CNR1; Gαi1-γ2 dissociation, agonist, BRET): 430 ± 60 nM
CC(=O)N(CC(=O)N(C)[C@@H](C)C(=O)N(Cc1c[nH]c2cc(Cl)ccc12)[C@@H](C)C(=O)N(C)[C@@H](C)C(=O)N(CCC(C)(C)C)[C@@H](C)C(=O)N(C)CC(=O)N(C)CC(=O)N(C)CC(=O)NCCNC(=O)c1ccc2c(c1)C(=O)OC21c2ccc(O)cc2Oc2cc(O)ccc21)Cc1ccccc1 — Kd (E3 ubiquitin-protein ligase Mdm2, N-terminal domain 17-125 (MDM2, Homo sapiens, UniProt Q00987); binding, fluorescence anisotropy; 25 °C, fluorescein-labelled peptoid, 10 nM): 140 nM
CC(=O)N(Cc1ccc(Cl)cc1)[C@@H](C)C(=O)N(C)[C@@H](C)C(=O)N(Cc1c[nH]c2ccccc12)[C@@H](C)C(=O)N(C)[C@@H](C)C(=O)N(CCC(C)C)[C@@H](C)C(N)=O — Ki (MDM2; ligand displacement, FP): 22300 nM
CC[C@H](C)[C@H](NC(=O)[C@H](CO)NC(=O)[C@H](CC(N)=O)NC(=O)[C@H](CC(C)C)NC(=O)[C@H](Cc1ccc(O)cc1)NC(=O)[C@H](CCCCN)NC(=O)[C@H](CCCCN)NC(=O)[C@@H](NC(=O)[C@H](C)NC(=O)[C@H](CCSC)NC(=O)[C@H](CCC(N)=O)NC(=O)[C@H](CCCCN)NC(=O)[C@H](CCCN=C(N)N)NC(=O)[C@H](CC(C)C)NC(=O)[C@H](CCCN=C(N)N)NC(=O)[C@@H](NC(=O)[C@H](Cc1ccc(O)cc1)NC(=O)[C@H](CC(N)=O)NC(=O)[C@H](CC(=O)O)NC(=O)[C@@H](NC(=O)[C@H](Cc1ccccc1)NC(=O)[C@@H](NC(=O)[C@H](C)NC(=O)[C@H](CC(=O)O)NC(=O)[C@H](CO)NC(=O)[C@@H](N)Cc1c[nH]cn1)C(C)C)[C@@H](C)O)[C@@H](C)O)C(C)C)C(=O)N[C@@H](CC(C)C)C(=O)N[C@@H](CC(N)=O)C(N)=O — EC50 (ADCYAP1R1 (Homo sapiens, UniProt P41586); calcium signal, agonist, fluorescence): 77.6 nM
CC[C@H](C)[C@H](NC(=O)[C@H](CO)NC(=O)[C@H](Cc1ccc(O)cc1)NC(=O)[C@H](Cc1ccc(O)cc1)NC(=O)[C@H](CC(N)=O)NC(=O)CNC(=O)[C@H](CO)NC(=O)[C@H](Cc1ccc(O)cc1)NC(=O)[C@H](CO)NC(=O)[C@H](CO)NC(=O)[C@H](CC(N)=O)NC(=O)COCCOCCNC(=O)CN1CCN(CC(=O)O)CCN(CC(=O)O)CCN(CC(=O)O)CC1)C(=O)N[C@@H](CC(C)C)C(N)=O [copper-64 labelled] — maximum pancreas uptake (dynamic PET; tamoxifen-induced PDAC mouse model, pancreas; 8.5 min, CLDN4-expressing tumours): 18.1 %IA/cc
CCN(CC)C(=O)[C@@H]1C=C2c3cccc4c3c(cn4C(=O)c3ccco3)C[C@H]2N(C)C1 — Ki (HTR1B (Homo sapiens, UniProt P28222); ligand displacement, radioligand): 1460 nM
CCCCCn1cc(C(=O)c2ccc3c(c2)CC(C)(C)C3)c2ccccc21 — EC50 (CNR1 (Homo sapiens, UniProt P21554, F174A); G protein activation, agonist, BRET): 2450 nM
Cc1ccc(OCCN(C)C)cc1C(=O)N[C@H](C)c1cc(-c2ccnn2C)nc2ccccc12 — viability (Vero E6; 3.906 µM): 90.4% and 121%
O=C(c1ccc(Cl)cc1Cl)N1CCO[C@@H](c2ccccc2)C1 — Kd (Hemagglutinin (HA, Influenza A virus, UniProt P03452); A/Puerto Rico/8/1934): 6100 nM
Cc1ccc2c(C(C[N+](=O)[O-])c3cccs3)c(-c3ccccc3)[nH]c2c1 (centres unmarked) — EC50 (CNR1 (Homo sapiens, UniProt P21554, V249A); β-arrestin recruitment, agonist, luciferase): 180 nM
CC(C)C[C@@H]1NC(=O)CN(C)C(=O)[C@H](Cc2c[nH]c3ccccc23)NC(=O)[C@H](CCC(=O)O)NC(=O)[C@H](Cc2ccccc2)N(C)C(=O)[C@H](Cc2ccccc2)NC(=O)CSC[C@@H](C(N)=O)NC(=O)[C@H](CCCCN)NC(=O)[C@H](C(C)C)NC(=O)[C@H](Cc2ccc(O)cc2)NC(=O)[C@H](Cc2ccc(O)cc2)NC(=O)[C@H](C(C)C)NC(=O)[C@H](Cc2ccccc2)N(C)C(=O)[C@H](C)NC1=O — IC50 (ARID1B; binding, TR-FRET competition; 1% DMSO): > 1 µM
COc1ccccc1C(C[N+](=O)[O-])c1c(-c2ccccc2)[nH]c2ccccc12 (centres unmarked) — EC50 (CNR1 (Homo sapiens, UniProt P21554, I169A); G protein activation, agonist, BRET): 930 nM
CC1(C)CC(NC(=O)c2[nH]c3ccc(Cl)cc3c2CCC(=O)Nc2ccc(Cl)cc2)CC(C)(C)N1[O] — IC50 (gyrB with GyrA): 3.2 µM
